# Measurements of several laboratories.
# Lines come from different studies, so protocols differ. Numbers after ± are the reported error.
# ESR1: Estrogen receptor (ESR1, Homo sapiens, UniProt P03372)
SMILES,target,assay,test system,setting,how to read,quantity,value
N=C(N)NCCC[C@H](NC(=O)[C@H](Cc1ccccc1)NC(=O)[C@@H](N)CO)C(=O)N[C@@H](CC(N)=O)C(N)=O,"Neuropeptide S receptor (Mus musculus, UniProt Q8BZP8)","cAMP accumulation, agonist",HEK293T,"mouse receptor, unit not given",relative to: maximal assay window,maximal response,0.87
CCCCCCOc1ccc(C(=O)OCC[N+]2(C)CC=CCC2)cc1 (stereo not drawn),"CHRM3 (Homo sapiens, UniProt P20309)","antagonist, item: inositol phosphates",CHO,"M3, together with: carbachol",,cooperativity factor,0.0014 ± 0.0003
CCCn1c(=O)c2[nH]c(-c3ccc(OCC(=O)NCCNC(=O)CCCCCCCNS(=O)(=O)c4cccc5c(N(C)C)cccc45)cc3)nc2n(CCC)c1=O,"ADORA1 (Homo sapiens, UniProt P30542)","CRE reporter gene, inverse agonist",CHO-A1,"concentration not given, together with: forskolin",relative to: forskolin alone,inverse agonist response,1.2 ± 0.03 fold increase
CCNC(=O)NC1CC=C(c2cc3c(Nc4cc5ncsc5cc4F)ncnc3s2)CC1 (racemic),"RIPK1 (Homo sapiens, UniProt Q13546)",enzyme activity,,1 µM,relative to: untreated,remaining activity,95 ± 2%
CN1CCN(CC(=O)N2N=C3/C(=C/c4ccccc4)CCCC3C2c2ccccc2)CC1 (mixture of isomers),"ALOX15 (Homo sapiens, UniProt P16050)","enzyme activity, activator",,"pH 7.4, 1% DMSO, stirring, together with: arachidonic acid 50 µM",,maximal activation,150%
CN(C)CCCOc1ccc2cc(CN)ccc2c1,"Primary amine oxidase, liver isozyme (Bos taurus, UniProt Q29437)","substrate, fluorescence",,"pH 7.2, 30 °C",,kcat,0.302 ± 0.006 s⁻¹
CCCNCC(=O)O,"Albumin (ALB, Homo sapiens, UniProt P02768)","binding, UV-vis absorption titration",,,,midpoint concentration,781 µM
C[C@H](CCC(=O)N[C@@H](CCC(=O)Nc1cccc(O)c1)C(=O)O)[C@H]1CC[C@H]2[C@@H]3[C@H](O)C[C@@H]4C[C@H](O)CC[C@]4(C)[C@H]3CC[C@]12C,"SLC10A2 (Homo sapiens, UniProt Q12908)","transport efficiency, substrate, LC-MS/MS",ASBT-MDCK,,,normalized Jmax/Kt,0.141 µM⁻¹
CCC(=C(c1ccc(O)cc1)c1ccc(OCCN(C)CCOCCOCCOCCOCCOCCOCCOCCN(C)CCOc2ccc(C(=C(CC)c3ccccc3)c3ccc(O)cc3)cc2)cc1)c1ccccc1 (mixture of isomers),ESR1,"ligand, radioligand competition binding",,"concentration not given, together with: [3H]estradiol tracer",relative to: estradiol,relative binding affinity,30.7 ± 2.8%
Cc1cc(NC(=O)c2cccc(-n3cc(NC(=O)Nc4ccc(Cl)cc4)cn3)c2)ccn1,"Mitogen-activated protein kinase 10, isoform alpha-1 (MAPK10, Homo sapiens, UniProt P53779, L144I)",HTRF,,,relative to: L144I mutant over wild type,IC50 ratio,4.2 fold
CCNC(=O)C1OC(n2cnc3c(NCC(c4ccccc4)c4ccccc4)nc(NCCNC(=O)Nc4cc[n+](C)cc4)nc32)C(O)C1O (stereo not drawn),"ADORA2A (Homo sapiens, UniProt P29274)","agonist, HTRF",CHO cells expressing ADORA2A,"concentration not given, after washout",,duration of cAMP response,≥ 5 h
CC(=O)N[C@H](Cc1ccccc1)C(=O)N[C@@H](C(=O)N[C@H](C)C(=O)N[C@H](COP(=O)(O)O)C(N)=O)[C@H](C)O,"Breast cancer type 1 susceptibility protein, tandem BRCT domains (BRCA1, Homo sapiens, UniProt P38398)","binding, fluorescence polarization",,concentration not given,,activity,inactive
CCN(CC)C(=O)c1ccc(O)c(OC)c1,"Heat shock protein HSP 90-alpha, N-terminal domain (HSP90AA1, Homo sapiens, UniProt P07900)","binding, ligand-observed NMR titration",,ligand to protein ratio 202,,contrast,54%
O=C1c2ccc(O)cc2O[C@@H](c2ccc(O)cc2)[C@@H]1[C@@H]1C(=O)c2ccc(O)cc2O[C@H]1c1ccc(O)cc1,"PRXC1A (Armoracia rusticana, UniProt P00433)","oxidation, substrate",,,,Vmax,144 ± 4.1 µmol/min/mg
NCCCC[C@H](NC(=O)[C@H](C/C=C/C[C@H](NC(=O)[C@@H]1CCCN1)C(=O)N[C@@H](CCCCN)C(=O)NCCCN)NC(=O)[C@@H]1CCCN1)C(=O)NCCCN,(CCUG)10 RNA,SPR,,,,residence time,1 s
CCC(=C(c1ccc(Cl)cc1)c1ccc(OCCN(C)C)cc1)c1ccc(OC)cc1,ESR1,"reporter gene, agonist, yeast estrogen screen",,1 µM,relative to: DMSO,fold activation,5.49 ± 0.71 fold
Cc1ccc(C(=O)Nc2cc(S(=O)(=O)O)cc3ccc(S(=O)(=O)O)cc23)cc1NC(=O)Nc1cc(C(=O)Nc2cc(S(=O)(=O)O)cc3ccc(S(=O)(=O)O)cc23)ccc1C,"Neutrophil elastase (ELANE, Homo sapiens, UniProt P08246)","enzyme activity, inhibitor, chromogenic substrate hydrolysis",,"pH 7.4, 37 °C, 100 mM NaCl, together with: substrate S-1384",,maximal inhibition,104 ± 13.6%
CCCCCCCCO[C@@H]1O[C@H](CO)[C@H](O)[C@H](O[C@H]2O[C@H](CO)[C@H](O)[C@H](O)[C@H]2O)[C@H]1O[C@@H]1O[C@@H](C)[C@@H](O)[C@@H](O)[C@@H]1O,"ABO (Homo sapiens, UniProt P16442, G235S/G268A/L266M/R176G)",methyl-TROSY NMR titration lineshape analysis,,apo enzyme,,kon,1.1e+07 M⁻¹ s⁻¹
Nc1nc2c(ncn2C2CC(O)C(COP(=O)(O)OCCCNC(=O)c3cccc(-c4cccc(Br)c4)c3)O2)c(=O)[nH]1 (stereo not drawn),"SAMHD1 (Homo sapiens, UniProt Q9Y3Z3, D137N)","inhibitor, malachite green",,together with: XTP activator,relative to: D137N mutant over wild type,IC50 fold increase,30 fold
Cc1sc2c(c1C)C(c1ccc(Cl)cc1)=N[C@@H](CC(=O)NCCCCCCCCC(=O)N1CCN(C(=O)c3cc(Cc4n[nH]c(=O)c5ccccc45)ccc3F)CC1)c1nnc(C)n1-2,"BRD4/PARP1 (Homo sapiens, UniProt O60885+P09874)",co-immunoprecipitation,HEK293T expressing FLAG-BRD4,1 h,,concentration for maximal PARP1-BRD4 interaction,50 nM
CNc1ccccc1C(=O)O[C@H]1C[C@H](n2cnc3c(N)ncnc32)O[C@@H]1COP(=O)(O)OP(=O)(O)O,"Unconventional myosin-Va (Gallus gallus, UniProt Q02440, D297C/G292C/I296C/S293C/V295G)",FRET,compound complex,"4 °C, together with: 4 mM EDTA",,donor-acceptor distance,12.5 Å
COc1cc(C2CC(=O)Nc3nc(N)[nH]c(=O)c32)ccc1O (stereo not drawn),"uncharacterized protein (Leishmania donovani, UniProt A0A3Q8IA09)",competitive ITC,,"concentration not given, together with: aspartate 60 µM",,binding stoichiometry,3.5 ± 1.2
C=CCC(=N)NCCC[C@H](N)C(=O)O,"Nitric oxide synthase 1 (Mus musculus, UniProt Q9Z0J4)","NMDA-evoked cGMP accumulation, inhibitor",adult mouse hippocampal slices,fixed for fitting,,Hill slope,1
CC(C)CCC[C@@H](C)[C@H]1CC[C@H]2[C@@H]3CC=C4C[C@@H](OS(=O)(=O)O)CC[C@]4(C)[C@H]3CC[C@]12C,"Prothrombin (F2, Homo sapiens, UniProt P00734)","enzyme activity, inhibitor",,together with: hirudin peptide 0 nM,,Hill slope,1.9 ± 0.7
[3H]C([3H])([3H])c1cnccc1CN1C[C@@H](c2cc(F)c(F)c(F)c2)CC1=O,"SV2A (Homo sapiens, UniProt Q7L0J3)",radioligand binding,frontal cortex P1 fraction,,relative to: Alzheimer disease over control,specific binding ratio,~1.53 fold
O=P(O)(O)O[C@@H]1[C@@H](O)[C@H](O)[C@H](O)[C@H](O)[C@H]1OP(=O)(O)O,"Itpr1 (Rattus norvegicus, UniProt P29994, del318-332/R568Q)","Ca2+ release, agonist",permeabilized DT40 cells,,,Hill coefficient,1.1 ± 0.2
CCC(C)/C=C/C(C)=C\C=C\C(C)=C\C=O (stereo not drawn),"Rhodopsin (RHO, Homo sapiens, UniProt P08100, T289P)","pharmacological chaperone, immunostaining, nonpermeabilized cells",661W,"2.5 µM, 16 h",relative to: untreated cells,cell surface expression,~6 fold

# A few entries again:
SMILES,target,assay,test system,setting,how to read,quantity,value
N=C(N)NCCC[C@H](NC(=O)[C@H](Cc1ccccc1)NC(=O)[C@@H](N)CO)C(=O)N[C@@H](CC(N)=O)C(N)=O,"Neuropeptide S receptor (Mus musculus, UniProt Q8BZP8)","cAMP accumulation, agonist",HEK293T,"mouse receptor, unit not given",relative to: maximal assay window,maximal response,0.87
O=C1c2ccc(O)cc2O[C@@H](c2ccc(O)cc2)[C@@H]1[C@@H]1C(=O)c2ccc(O)cc2O[C@H]1c1ccc(O)cc1,"PRXC1A (Armoracia rusticana, UniProt P00433)","oxidation, substrate",,,,Vmax,144 ± 4.1 µmol/min/mg
